Assay results from different studies.
A part holds a random share of what one study measured. Changes are numbered by the printed parent chain.

Sample 1
Target: Fragile X messenger ribonucleoprotein 1, C-terminal low-complexity region (Fmr1, Mus musculus, UniProt P35922)
Technique: RNA Bind-n-Seq
Molecule type: RNA
Sample: in vitro
Concentration: 200 nM
Notes: whole 134-nt RNA, ends assumed
Together with: 150 mM KCl
Reference: input library
Direction: higher = stronger binding
Endpoint: log2 enrichment
Shared flanks, not repeated: GGGAGUUCUACAGUCCGACGAUC … UGGAAUUCUCGGGUGUCAAGG
CUCAAGUCCUGUGCUACACAUCGUAUGUACCGAAUCGGUUUGGAGGAAAAAGGAAAGUAUUAUGUUACGCCGUUCGGAUCUGCACUUCCA: -0.0584
CUCAAGUCCUGUGCUACACAUCGUAUGUACCGAAUCGGUUUGGUUUGGUUUGGGAAAGUAUUAUGUUACGCCGUUCGGAUCUGCACUUCC: -0.465
UUCCCCUGGAGGGCGCCUCCAUCCUUGGAGGCCUAGUGCCGUCGGAGAGAGAGCGGGAGCCGCGGACAGAGACGCGUGCGCAAUUCGGAG: -1.17
AAGUCCUGUGCUACACAUCGUAUGUACCGAAUCGGGUUUGGGAAAAAGGGUUUGGGAAAGUAUUAUGUUACGCCGUUCGGAUCUGCACUU: 0.652
ACCAUGCAGGUGGGCAUCUUUGGGAAGUGGGGCAAGGGGGGGAUAGGGAGGGGGGUAACACUUUGGGAACAAAUGGUCCCAGGUCGUUUC: 0.716
CACAGACAACACGCACCCACACAGACACAGAGGGAAGGGGUUGGGACGGGGACAGGGUGCACAGCAGGGCGGGGUAGGACCCCAGCCCCU: 1.24
CCUCAAGUCCUGUGCUACACAUCGUAUGUACCGAAUCGGCGGCGGGGCGGGGAAAGUAUUAUGUUACGCCGUUCGGAUCUGCACUUCCAG: 0.454
CCUCAAGUCCUGUGCUACACAUCGUAUGUACCGAAUCGGGCCGGCCGGCCGGAAAGUAUUAUGUUACGCCGUUCGGAUCUGCACUUCCAG: -0.123
GUCCUGUGCUACACAUCGUAUGUACCGAAUCGGGGUUUUUGGGGUGGGGAAAAAGGGGAAAGUAUUAUGUUACGCCGUUCGGAUCUGCAC: 0.569
UCCUCAAGUCCUGUGCUACACAUCGUAUGUACCGAAUCGGGAGGGGAGGAGGAAAGUAUUAUGUUACGCCGUUCGGAUCUGCACUUCCAG: 0.232
CACAGACAACACGCACCCACACAGAAAAAGAGGGAAGGGGUUGGGAUGGGGACAGGGUGCACAGCAGGGCGGGGUAGGACCCCAGCCCCU: 1.26
CUCAAGUCCUGUGCUACACAUCGUAUGUACCGAAUCGGUUGGGGUUGGGUUGGAAAGUAUUAUGUUACGCCGUUCGGAUCUGCACUUCCA: 0.0765
AGUCCUGUGCUACACAUCGUAUGUACCGAAUCGGGGUUUUGGGUUUUGGGUUUUGGGGAAAGUAUUAUGUUACGCCGUUCGGAUCUGCAC: 0.823
UAACUUUUGAGGAGGAUCUGAUGGAUAUGGCAGUGGACGUGGAUUUGGGGAUGGCUAUAAUGGGUAUGGAGGAGGACCUGGAGGUGGCAA: 0.419

Sample 2
Target: ABI1, truncated, D143A, DHFR fusion (Arabidopsis thaliana)
Technique: DHFR PCA, deep sequencing
Sample: yeast
Notes: methotrexate growth selection, single substitutions
Together with: (+)-ABA 0 µM
Reference: wild-type fitted maximum
Direction: higher = stronger binding
Endpoint: relative binding score
Starting sequence: PYL1, truncated, DHFR fusion (Arabidopsis thaliana); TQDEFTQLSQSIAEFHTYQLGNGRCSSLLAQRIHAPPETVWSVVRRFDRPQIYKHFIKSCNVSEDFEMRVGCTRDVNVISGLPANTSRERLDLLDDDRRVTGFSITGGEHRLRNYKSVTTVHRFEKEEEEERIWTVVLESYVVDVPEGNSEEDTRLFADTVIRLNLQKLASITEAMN
A35S: 1.84%
G23C: 1.5%
D3K: 17.1%
K58G: 5.71%
L29N: -2.79%
A35H: -0.923%
T17H: 4.74%
D153W: -1.43%
D159W: -6.58%
V62Q: -2.06%
T120C: -3.47%
I133R: 11.7%
L164R: 10.7%
S26L: 0.605%
V161D: 1.42%
R163L: 0.639%

Sample 3
Target: CCNF, cyclin fold, Cln2 fusion (human)
Technique: yeast growth competition, sequencing
Sample: yeast
Notes: strong parent motif
Reference: not given
Direction: higher = stronger binding
Endpoint: normalised enrichment score
Starting sequence: PKMYT1 docking peptide (human); SFEPRNLLSLFED
R5I: 1.06
D13N: 1.35
L8F: 1.19
S9C: -0.528
S1I: 0.806
N6P: -0.365
R5E: -0.166
E3R: 1.37
D13L: 1.95
D13I: 1.83
D13A: 1.73
E12Q: 0.682
E3S: -0.418
S9G: 0.666
F2I: 0.456
N6L: 0.22
E12N: 0.819
L7S: -1.35
N6D: -1.65
D13F: 1.97
L10A: -0.127
L7F: -1.24
S1H: 1.24
F11V: -0.202
F11G: -0.742

Sample 4
Target: CREB3, bZIP domain (human)
Technique: DHFR protein complementation
Sample: yeast
Notes: single substitutions, most at no-binding floor
Reference: wild-type JUN-FOS pair
Direction: higher = stronger binding
Endpoint: binding fitness
Starting sequence: JUN, bZIP domain (human); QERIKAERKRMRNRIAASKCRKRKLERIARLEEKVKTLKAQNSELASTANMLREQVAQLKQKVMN; partner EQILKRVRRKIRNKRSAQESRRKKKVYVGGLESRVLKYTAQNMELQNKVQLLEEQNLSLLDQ
I28L: -1.53 natural log
Q55G: -1.52 natural log
K34P: -1.53 natural log
L38N: -1.44 natural log
A57E: -1.38 natural log
L52K: -1.57 natural log
S47H: -1.35 natural log
T37V: -1.42 natural log
A46H: -1.5 natural log
S47F: -1.42 natural log
L45W: -1.54 natural log
L45V: -1.54 natural log
A29G: -1.51 natural log

Excerpt of the above (sample 3):
S1I: 0.806
N6P: -0.365
R5E: -0.166
E3R: 1.37
